{"data": "Assay results pooled from the literature", "note": "Each numbered part is a random draw from the data of one study; scales do not carry over between parts. Substitutions count along the parent as printed."}
{"data": "Set 1", "target": "ABI1, truncated, D143A, DHFR fusion (Arabidopsis thaliana)", "technique": "DHFR PCA, deep sequencing", "sample": "yeast", "notes": "methotrexate growth selection, single substitutions", "added": "(+)-ABA 0 µM", "relative to": "wild-type fitted maximum", "direction": "higher = stronger binding", "parent": "PYL1, truncated, DHFR fusion (Arabidopsis thaliana); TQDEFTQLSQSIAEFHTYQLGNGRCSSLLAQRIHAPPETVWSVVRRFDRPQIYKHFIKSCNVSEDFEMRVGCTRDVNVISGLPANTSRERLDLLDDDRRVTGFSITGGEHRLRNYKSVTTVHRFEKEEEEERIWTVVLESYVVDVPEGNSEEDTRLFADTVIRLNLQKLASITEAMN; partner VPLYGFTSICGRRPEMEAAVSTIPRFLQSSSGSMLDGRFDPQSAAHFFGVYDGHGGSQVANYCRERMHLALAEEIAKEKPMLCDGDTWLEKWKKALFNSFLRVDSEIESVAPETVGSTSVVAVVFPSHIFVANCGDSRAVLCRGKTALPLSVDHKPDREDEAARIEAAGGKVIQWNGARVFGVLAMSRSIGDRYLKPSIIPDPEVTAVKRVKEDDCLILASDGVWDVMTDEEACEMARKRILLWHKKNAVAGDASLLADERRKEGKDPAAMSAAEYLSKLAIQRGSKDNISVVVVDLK"}
{"Variant": "T86G", "relative binding score [%]": 0.705}
{"Variant": "R113G", "relative binding score [%]": 2.92}
{"Variant": "F103M", "relative binding score [%]": -3.21}
{"Variant": "I172P", "relative binding score [%]": -9.44}
{"Variant": "R155D", "relative binding score [%]": -10.7}
{"Variant": "H55E", "relative binding score [%]": 25.6}
{"Variant": "V43G", "relative binding score [%]": -3.42}
{"Variant": "S42W", "relative binding score [%]": -7.38}
{"Variant": "K126I", "relative binding score [%]": 14.9}
{"Variant": "I172C", "relative binding score [%]": 1.27}
{"data": "Set 2", "target": "Histone acetyltransferase KAT6A, both winged helices, GST fusion (KAT6A, Homo sapiens, UniProt Q92794, residues 1-181)", "technique": "protein binding microarray", "molecule type": "double-stranded DNA, one strand shown", "sample": "in vitro", "concentration": "not given", "notes": "8-mer, flanks averaged, mean of 2 arrays, mostly near background", "relative to": "not given", "direction": "higher = stronger binding", "Target sequence (chain)": "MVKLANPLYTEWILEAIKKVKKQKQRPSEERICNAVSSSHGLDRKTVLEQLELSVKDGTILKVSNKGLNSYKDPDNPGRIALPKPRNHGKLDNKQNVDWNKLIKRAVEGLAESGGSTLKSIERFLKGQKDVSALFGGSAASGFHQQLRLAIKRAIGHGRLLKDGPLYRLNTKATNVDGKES"}
{"Strand": "GAACTAAC", "E-score": -0.0763}
{"Strand": "GACAGATA", "E-score": -0.019}
{"Strand": "AAGTACCA", "E-score": -0.0857}
{"Strand": "AAATGCTA", "E-score": -0.117}
{"Strand": "AGAGACCA", "E-score": -0.127}
{"Strand": "CACAGGAC", "E-score": -0.0675}
{"Strand": "ACTCGGGC", "E-score": 0.0463}
{"Strand": "CCGCCAGC", "E-score": 0.157}
{"Strand": "ACTACCAC", "E-score": -0.197}
{"Strand": "ACACCGTA", "E-score": 0.202}
{"Strand": "CAGATGCC", "E-score": -0.0721}
{"Strand": "ACACGATG", "E-score": -0.086}
{"Strand": "AAAATTAA", "E-score": -0.00093}
{"Strand": "TAGGACCA", "E-score": -0.174}
{"Strand": "ATAACCAT", "E-score": -0.0649}
{"Strand": "CACAGTAA", "E-score": -0.0709}
{"Strand": "ACGCTGAA", "E-score": 0.182}
{"Strand": "CGTGATGA", "E-score": -0.0649}
{"Strand": "ATTAGACC", "E-score": 0.0178}
{"Strand": "AATGACGG", "E-score": 0.249}
{"Strand": "AAGTGCCG", "E-score": 0.248}
{"Strand": "CGCAAGCG", "E-score": 0.255}
{"Strand": "CCTACAAC", "E-score": -0.039}
{"Strand": "GACTGAGC", "E-score": -0.0212}
{"Strand": "AGTATCAG", "E-score": -0.167}
{"data": "Set 3", "target": "CCNB2, cyclin fold, Cln2 fusion (human)", "technique": "yeast growth competition, sequencing", "sample": "yeast", "notes": "weak parent motif", "relative to": "not given", "direction": "higher = stronger binding", "parent": "AKAP12 docking peptide (human); GSPLKKLFTSTGL"}
{"Variant": "GSPLAKLFTSTGL [K5A]", "normalised enrichment score": -0.0923}
{"Variant": "GSPAKKLFTSTGL [L4A]", "normalised enrichment score": -0.164}
{"Variant": "GSPLKKLFTSTAL [G12A]", "normalised enrichment score": -0.843}
{"Variant": "GSPLKKLFASTGL [T9A]", "normalised enrichment score": 0.0413}
{"Variant": "GSPLRKLLTSTGL [K5R F8L]", "normalised enrichment score": 0.293}
{"Variant": "GSPLKKLFTATGL [S10A]", "normalised enrichment score": 0.408}
{"Variant": "GAPLKKLFTSTGL [S2A]", "normalised enrichment score": 0.371}
{"data": "Set 4", "target": "Ras GTPase-activating protein-binding protein 1, RRM domain (G3BP1, Homo sapiens, UniProt Q13283)", "technique": "RNA Bind-n-Seq", "molecule type": "RNA", "sample": "in vitro", "concentration": "1 µM", "notes": "whole 134-nt RNA, ends assumed", "added": "150 mM KCl", "relative to": "input library", "direction": "higher = stronger binding", "all sequences stand within": "GGGAGUUCUACAGUCCGACGAUC … UGGAAUUCUCGGGUGUCAAGG", "UniProt Q13283, sequence (whole entry, looked up)": "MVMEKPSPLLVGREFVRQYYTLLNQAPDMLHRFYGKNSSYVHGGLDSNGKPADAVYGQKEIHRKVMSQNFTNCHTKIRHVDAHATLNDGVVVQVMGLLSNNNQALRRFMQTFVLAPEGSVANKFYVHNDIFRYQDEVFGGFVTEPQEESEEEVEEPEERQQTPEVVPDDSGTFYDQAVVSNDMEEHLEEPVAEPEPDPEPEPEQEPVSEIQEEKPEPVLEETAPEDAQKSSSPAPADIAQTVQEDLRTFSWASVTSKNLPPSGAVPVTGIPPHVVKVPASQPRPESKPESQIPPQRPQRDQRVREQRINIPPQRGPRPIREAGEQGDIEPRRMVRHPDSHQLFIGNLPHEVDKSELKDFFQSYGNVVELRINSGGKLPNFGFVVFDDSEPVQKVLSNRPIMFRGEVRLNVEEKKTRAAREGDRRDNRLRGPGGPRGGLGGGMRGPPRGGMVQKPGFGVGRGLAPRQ"}
{"Strand": "UGGGAGGUGGAUUCUGUUUAUUUUUUUAGCUCAUUUCCAGGGGUGGGAAUUUUUUUUUAAUAUGUGUCAUGAAUAAAGUUGUUUUUGAAA", "log2 enrichment": 1.83}
{"Strand": "UGGCCUUGGUGGCAUGCGGGGAGGAAGAGGUGGCCUCAUGGAUCGUGGUGGUCCCGGUGGAAUGUUCAGAGGUGGCCGUGGUGGAGACAG", "log2 enrichment": 0.5}
{"Strand": "UGGCCCUGGUGGCAUGCGGGGAGGAAGAGGUGGCCUCGUGGAUCGUGGUGGUCCCGGUGGAAUGUUCAGAGGUGGCCGUGGUGGAGACAG", "log2 enrichment": 0.845}
{"Strand": "CACAGACAACACGCACCCACACAGACACAGAGGGAAGGGGUAGGGAUGGGGACAGGGUGCACAGCAGGGCGGGGUAGGACCCCAGCCCCU", "log2 enrichment": -0.0461}
{"Strand": "GUCCUGUGCUACACAUCGUAUGUACCGAAUCGGGGAGGGGAAAAAGGGGAAAAAGGGGAAAGUAUUAUGUUACGCCGUUCGGAUCUGCAC", "log2 enrichment": 0.956}
{"Strand": "GCAGGAAAAAAAAACAAAUGGAAAUGCUUCGGAUAGUGGCAGGGGUGGGGGUUGCUAAGGAAAGGGUGGGAUGGGAGUGGGUAAAGAGUU", "log2 enrichment": 1.12}
{"Strand": "CACAGACAACACGCACCCACACAGACACAGCGGGAAGGGGUUGGGAUGGGGACAGGGUGCACAGCAGGGCGGGGUAGGACCCCAGCCCCU", "log2 enrichment": 0.137}
{"Strand": "CCUGUGCUACACAUCGUAUGUACCGAAUCGGGUUUUUUUGGGUUUUUUUGGUUUUUUUGGAAAGUAUUAUGUUACGCCGUUCGGAUCUGC", "log2 enrichment": -0.121}
{"Strand": "UUCAACAACUAGUACUGCUUCAAAUUAUCCAGAUGUGUUAACAAGGCCUUCUCUUCAUCGGAGCCAUCUGAAUUUUUCCAUGUUGGAAUC", "log2 enrichment": -0.00783}
{"Strand": "AGUCCUGUGCUACACAUCGUAUGUACCGAAUCGGGAAAAAGGGUUUGGGUUUUUGGGAAAGUAUUAUGUUACGCCGUUCGGAUCUGCACU", "log2 enrichment": 0.24}
{"Strand": "AUUCUAUAAAUGGCAAGUAAGCCUGAAGUGAGGAUACUGCAAUUUUCGGAGAAAAGAACAGCAGCUCUUUAAGUGUUUGCAUUUUCUAUU", "log2 enrichment": -0.27}
{"Strand": "UAACUUUAGAGGAGGAUCUGAUGGAUAUGGCAGUGGACGUGGAUUUGGGGAUGGCUAUAAUGGGUAUGGUGGAGGACCUGGAGGUGGCAA", "log2 enrichment": -0.326}
{"Strand": "CUCAAGUCCUGUGCUACACAUCGUAUGUACCGAAUCGGGGCCGGGCCGGGCCGGAAAGUAUUAUGUUACGCCGUUCGGAUCUGCACUUCC", "log2 enrichment": -1.03}
{"Strand": "AAGUCCUGUGCUACACAUCGUAUGUACCGAAUCGGGAGGGUUUUUUUGGGAAAGGGAAAGUAUUAUGUUACGCCGUUCGGAUCUGCACUU", "log2 enrichment": 0.712}
{"note": "A few entries again (set 3):"}
{"Variant": "GAPLKKLFTSTGL [S2A]", "normalised enrichment score": 0.371}
{"Variant": "GSPLKKLFTSTAL [G12A]", "normalised enrichment score": -0.843}
{"Variant": "GSPLKKLFASTGL [T9A]", "normalised enrichment score": 0.0413}
{"Variant": "GSPLAKLFTSTGL [K5A]", "normalised enrichment score": -0.0923}
{"Variant": "GSPLKKLFTATGL [S10A]", "normalised enrichment score": 0.408}
{"Variant": "GSPAKKLFTSTGL [L4A]", "normalised enrichment score": -0.164}
{"Variant": "GSPLRKLLTSTGL [K5R F8L]", "normalised enrichment score": 0.293}
